Assay results of several laboratories.
Parts stem from different laboratories: compare values within a part only. “And” joins repeats or separate records; there may be more than shown.

Study 1 — technique: RNA Bind-n-Seq; form: RNA; matrix: in vitro; concentration: 365 nM; baseline: no-protein control; direction: higher = stronger binding
Target: RNA binding protein fox-1 homolog 2, RRM domain, GST-SBP tag (RBFOX2, Homo sapiens, UniProt O43251-10, residues 100-194)
Notes: natural RNA segment, single round, ends assumed
`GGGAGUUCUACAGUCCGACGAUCCCGUUGUGGUCAGAGGAACUCUGGUGUUUGGUUCCCUGCUCAGCUGCGCGUGGACUGGGCUGAGCUCCUCACCAUACACUAGUGCCGGCUUUUGUUUCCUGUAAACAGUGUGGAAUUCUCGGGUGCCAA`: “RBNS enrichment (R)” 0.71.
`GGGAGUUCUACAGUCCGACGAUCGACUCUGGGCCCACAGCGGGGAGGCCAAGAGGGGCCCUGUGGACUUUCACCCAGCACUGUGGGGGCCUUCAGACUCUGGGGCAGCAGACAUGCUGCUUCCCAUCAGCCAGUGGAAUUCUCGGGUGCCAA`: “RBNS enrichment (R)” 0.537.
For `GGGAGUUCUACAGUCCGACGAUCAGCUUUACAACUAACAGCGCGCUAGAUGGCAGUUAAUUCGCAGUUAAAGAUAAUGCUUUUUAUUUACACGAAUAUAUCAAGUAGUACCCUCCUAUUGUAUUCACUUCUUCUGGAAUUCUCGGGUGCCAA`, “RBNS enrichment (R)” read 0.948.
Under “RBNS enrichment (R)”, `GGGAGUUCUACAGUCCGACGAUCCAGAGCUGGUCUUUGGGCUGUGUUCCUUGCCCAGGUUUCUGCAUCUUGCACUUUGACAUUCCCAGGAGGGAAGUGACUAGUGGAAGGGAGAGAGGAAGGGGAGGCAGAGAUGGAAUUCUCGGGUGCCAA` is recorded as 0.613.
For `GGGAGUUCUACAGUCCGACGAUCCACCUGGACUUGGCUUCCUGAGAAAGAUUGUUUUUUAACCUUUGGCUUUCUUCAUUCAGUGUGCCAUCUUUGAUCUUACAGCGGUGCCUGUGGAAGGACAGGGUGAGAAAUGGAAUUCUCGGGUGCCAA`, “RBNS enrichment (R)” read 0.453.
For `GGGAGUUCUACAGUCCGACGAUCUACACAUCCAUUACUUAUUCACUCAUCAGACUGUCAUGAAAUAUUUGUGUUGUUCCAGGGCCUGUGCUAAGCACAGGCACCAAACAUAAAAAGAGAGAAAGUCCUUGCUCUGGAAUUCUCGGGUGCCAA`, “RBNS enrichment (R)” read 0.363.
`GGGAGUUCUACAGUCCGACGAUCUUGAAUUCCUGACCUCAAAUGAUCCACGCACCUCAGCCUCCCAAAGUGCUGGAUUACAGGCAUGAGCCACCACGCCCAGCCAAAGGUUAUAAUCUGAUGGAGAGAGACACUGGAAUUCUCGGGUGCCAA`: “RBNS enrichment (R)” 0.525.
`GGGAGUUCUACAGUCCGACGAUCAAUGCUGUCGAUCAUUGCAAACGCCAUGUGUGGAAUAGUUUCCCAGCUGCAGAAGUCACCUACUUGUGGGUCUAGGGUAAUGAACACAUAGAUCUAUUUGACUUAAUAAGUGGAAUUCUCGGGUGCCAA`: “RBNS enrichment (R)” 0.676.

Study 2 — cell line: HEK-293T/ACE2; concentration: concentration not given; time: 16 (unit not given); baseline: vehicle
C[C@]12CC[C@H]3[C@@H](CCC4=CC(=O)CC[C@@H]43)[C@@H]1CC[C@@H]2O has a viability of 98.2%.
For C[C@]12CC[C@@H]3c4ccc(OS(=O)(=O)O)cc4CC[C@H]3[C@@H]1CCC2=O, the viability was 107%.
CC(=O)Nc1ccc(O)cc1 gave a viability of 99%.
OC[C@@H](O)[C@@H](O)[C@H](O)[C@@H](O)CO has a viability of 102%.

Study 3 — action: inhibitor; concentration: 20 µM
Target: Replicase polyprotein 1ab, nsp13 helicase (rep, Severe acute respiratory syndrome coronavirus 2, UniProt P0DTD1)
With CC(=O)[C@H]1CC[C@H]2[C@@H]3CC[C@@H]4C[C@H](O)CC[C@]4(C)[C@H]3CC[C@]12C the inhibition was 6.46%.
NC(=O)CN1CC(c2ccccc2)CC1=O (stereo not drawn) gave an inhibition of -0.9%.
With Cn1c(-c2ccccc2)nnc1S(C)(=O)=O the inhibition was 5.02%.
The inhibition of COc1cc2c(cc1F)C(c1ccccc1Cl)=Nc1c(n[nH]c1C)N2 is reported as 6.69%.
With COc1ccccc1S(=O)(=O)Nc1ccc2c(c1)CN(C)C(=O)N2 the inhibition was -3.74%.
For O=C(O)CCCCC(CCSCc1ccccc1)SCc1ccccc1 (stereo not drawn), the inhibition was 5.53%.
With O=C(O)C1=C[C@@H](O)[C@@H](O)[C@H](O)C1 the inhibition was 3.2%.
With O=C(OOC(=O)c1ccccc1)c1ccccc1 the inhibition was -7.71%.
FC(F)(F)c1cc(NC(=S)Nc2ccc(Br)cc2-c2nn[nH]n2)cc(C(F)(F)F)c1 gave an inhibition of 2.51%.
The inhibition of COC(=O)C1=C(C)N(C)C(C)=C(C(=O)OC)C1c1ccc(C(F)(F)F)cc1 is reported as -0.53%.
With NS(=O)(=O)NCCNc1nonc1/C(=N/O)Nc1ccc(F)c(Br)c1 the inhibition was -2.58%.
With Fc1ccc(C(c2ccccc2)(c2ccccc2F)n2ccnc2)cc1 (stereo not drawn) the inhibition was 0.93%.
O=C1Nc2cc(Cl)c(Cl)cc2N2CCNCC12 (stereo not drawn) gave an inhibition of 3.79%.
Cn1nccc1Nc1nccc(-c2ccn([C@H](CO)c3ccc(Cl)c(F)c3)c(=O)c2)n1 gave an inhibition of -9.73% and 5.07%.
O=C(O)[C@@H]1C[C@@H](O)CN1 has an inhibition of 1.83%.
For CSc1ccc([C@@H]2CN3CCC[C@@H]3c3ccccc32)cc1 (racemic), the inhibition was 5.54%.
Nc1nc2[nH]cnc2c(=S)[nH]1 gave an inhibition of 4.41%.
O=[N+]([O-])O[C@@H]1CO[C@H]2[C@@H]1OC[C@@H]2O gave an inhibition of 3.88%.
For C1=C2CCCN[C@H]2[C@@H]2C[C@H]1[C@H]1CCCCN1C2, the inhibition was 4.1%.
CC(C)(c1ccc(O)cc1)c1ccc(O)cc1 has an inhibition of 4.97%.
O=C(CSc1nc2c(c(=O)n1-c1ccccc1)SCC2)Nc1ccc(-c2ccccc2)cn1 gave an inhibition of 2.13%.
CC1(CN2CCC(n3c(=O)[nH]c4ccccc43)CC2)OCc2ccccc2-n2cccc21 (stereo not drawn) gave an inhibition of -1.96%.
For CCCCCCN(CCCCCC)C(=O)Cc1c(-c2ccc(Cl)cc2)[nH]c2ccc(Cl)cc12, the inhibition was 5.33%.
The inhibition of CCc1cc(C(N)=S)ccn1 is reported as -0.89%.

Study 4 — observed: enzyme activity; action: inhibitor; concentration: 20 µM; notes: hit confirmation
Target: Replicase polyprotein 1ab, main protease (rep, Severe acute respiratory syndrome coronavirus 2, UniProt P0DTD1)
CC(C)(C)c1cc(O)c(C(C)(C)C)cc1O gave an inhibition of -1.8%.
O=C1C(CC[S+]([O-])c2ccccc2)C(=O)N(c2ccccc2)N1c1ccccc1 (stereo not drawn) has an inhibition of 2.2%.
The inhibition of CCCCCCCCCCCCCCCC[n+]1ccn(Cc2ccccc2)c1C is reported as 77.8%.
COC(=O)C(N)CS (stereo not drawn) has an inhibition of 9.4%.

Study 5 — technique: RNA Bind-n-Seq; form: RNA; matrix: in vitro; concentration: 1 µM; notes: whole 134-nt RNA, ends assumed; together with: 150 mM KCl; baseline: input library; direction: higher = stronger binding
Target: Ras GTPase-activating protein-binding protein 1, RRM domain (G3BP1, Homo sapiens, UniProt Q13283)
Sequence of UniProt Q13283 (whole entry, looked up): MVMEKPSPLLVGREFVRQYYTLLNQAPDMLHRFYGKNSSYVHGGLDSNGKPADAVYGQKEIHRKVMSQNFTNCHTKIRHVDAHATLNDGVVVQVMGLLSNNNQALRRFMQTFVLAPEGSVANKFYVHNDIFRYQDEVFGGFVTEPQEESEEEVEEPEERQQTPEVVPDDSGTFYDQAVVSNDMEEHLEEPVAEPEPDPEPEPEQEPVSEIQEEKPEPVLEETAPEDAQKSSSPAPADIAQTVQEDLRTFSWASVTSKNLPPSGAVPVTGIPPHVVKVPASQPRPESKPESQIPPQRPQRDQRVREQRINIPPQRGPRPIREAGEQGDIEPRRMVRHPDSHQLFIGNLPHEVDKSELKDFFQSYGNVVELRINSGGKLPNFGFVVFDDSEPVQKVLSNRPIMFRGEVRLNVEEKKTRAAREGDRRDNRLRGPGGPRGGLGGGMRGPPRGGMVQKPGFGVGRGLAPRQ
With `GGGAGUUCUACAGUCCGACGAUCUCCUGUGCUACACAUCGUAUGUACCGAAUCGGGGUGGGGUUUUUGGGGAAAAAAAGGGGAAAGUAUUAUGUUACGCCGUUCGGAUCUGCAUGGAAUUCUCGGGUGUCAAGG` the log2 enrichment was 0.772.
`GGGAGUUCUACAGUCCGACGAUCCUCAAGUCCUGUGCUACACAUCGUAUGUACCGAAUCGGGAGGGAAAGGGUGGGAAAGUAUUAUGUUACGCCGUUCGGAUCUGCACUUCCAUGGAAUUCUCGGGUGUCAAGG` has a log2 enrichment of 0.701.
`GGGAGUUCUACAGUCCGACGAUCUCCUGUGCUACACAUCGUAUGUACCGAAUCAAACCCCCCCAAAUUUUUUUAAACCCAAAAAAGUAUUAUGUUACGCCGUUCGGAUCUGCAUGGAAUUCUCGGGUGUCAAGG` gave a log2 enrichment of -0.723.
`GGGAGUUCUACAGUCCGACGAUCAGUCCUGUGCUACACAUCGUAUGUACCGAAUCGGGCCCCCGGGGCCCCCGGCCCCCGGAAAGUAUUAUGUUACGCCGUUCGGAUCUGCACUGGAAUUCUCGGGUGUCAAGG` gave a log2 enrichment of -0.606.
`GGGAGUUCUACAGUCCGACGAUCUGGAUUAGAGAGAAAUUGAAUUUUUUCUUACUUGAACUCCUACUAAAAAGUGAACUAAAUAUUUUAUUGUAGUAAUGGCAUAGAGGAGCCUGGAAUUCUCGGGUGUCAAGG` has a log2 enrichment of -0.528.
For `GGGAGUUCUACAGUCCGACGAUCCUCAAGUCCUGUGCUACACAUCGUAUGUACCGAAUCGGGGAAGGAAGGAAGGGAAAGUAUUAUGUUACGCCGUUCGGAUCUGCACUUCCAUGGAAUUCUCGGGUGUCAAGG`, the log2 enrichment was -0.229.
With `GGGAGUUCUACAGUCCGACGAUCUGGCCCUGGUGGCAUGCGGGGAGGAAGAGGUGGCCUCAUGGAUCGGGGUGGUCCCGGUGGAAUGUUCAGAGGUGGCCGUGGUGGAGACAGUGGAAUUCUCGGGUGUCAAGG` the log2 enrichment was 0.76.
The log2 enrichment of `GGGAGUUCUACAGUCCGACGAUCCCUGUGCUACACAUCGUAUGUACCGAAUCGGGGUUUUUUGGGGUUUUUUGGGGUUUUUUGGAAAGUAUUAUGUUACGCCGUUCGGAUCUGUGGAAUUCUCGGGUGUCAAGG` is reported as -0.254.

Excerpt of the above (study 3):
Nc1nc2[nH]cnc2c(=S)[nH]1 gave an inhibition of 4.41%.
The inhibition of CCc1cc(C(N)=S)ccn1 is reported as -0.89%.
For CSc1ccc([C@@H]2CN3CCC[C@@H]3c3ccccc32)cc1 (racemic), the inhibition was 5.54%.
CC1(CN2CCC(n3c(=O)[nH]c4ccccc43)CC2)OCc2ccccc2-n2cccc21 (stereo not drawn) gave an inhibition of -1.96%.
